Literature values that unrelated publications cite.
Compare with care: the assays were run in different laboratories. Numbers after ± are the reported error.
UniProt Q13554, sequence (whole entry, looked up): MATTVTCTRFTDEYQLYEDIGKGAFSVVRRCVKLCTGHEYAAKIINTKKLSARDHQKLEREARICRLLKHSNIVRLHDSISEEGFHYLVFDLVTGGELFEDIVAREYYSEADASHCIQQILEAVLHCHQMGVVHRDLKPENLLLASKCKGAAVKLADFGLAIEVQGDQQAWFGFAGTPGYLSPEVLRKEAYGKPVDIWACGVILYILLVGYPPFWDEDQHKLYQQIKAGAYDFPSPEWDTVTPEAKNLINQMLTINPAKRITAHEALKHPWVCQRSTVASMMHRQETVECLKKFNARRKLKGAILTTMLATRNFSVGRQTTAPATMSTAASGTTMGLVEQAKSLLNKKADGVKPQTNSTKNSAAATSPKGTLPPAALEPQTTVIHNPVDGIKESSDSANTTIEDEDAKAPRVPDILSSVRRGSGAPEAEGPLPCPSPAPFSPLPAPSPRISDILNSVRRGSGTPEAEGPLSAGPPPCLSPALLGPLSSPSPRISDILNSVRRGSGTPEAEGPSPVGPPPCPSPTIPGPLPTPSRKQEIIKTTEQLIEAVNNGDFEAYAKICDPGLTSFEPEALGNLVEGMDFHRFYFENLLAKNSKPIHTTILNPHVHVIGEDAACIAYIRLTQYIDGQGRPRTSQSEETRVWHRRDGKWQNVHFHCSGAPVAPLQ

SMILES	target or system	test	test system	conditions	how to read	endpoint	result
Nc1cc(C(F)(F)F)c(-c2nc(N3CCOCC3)nc(N3CCOCC3)n2)cn1	CAMK2B (Homo sapiens, UniProt Q13554)	enzyme activity		10 µM	reference: untreated	remaining activity	92%
CNCc1cc(-c2ccccc2F)n(S(=O)(=O)c2cccnc2)c1			human	20 mg, multiple dose		Cmax	24.2 ng/mL
COCCc1ccc(OCC(O)CNC(C)C)cc1 (stereo not drawn)			human fasted	200 mg multiple doses, day 5, mean		Cmax	101 ng/mL
COc1cccc2c1C(=O)c1c(O)c3c(c(O)c1C2=O)C[C@@](O)(C(=O)CO)C[C@@H]3O[C@H]1C[C@H](N)[C@H](O)[C@H](C)O1			human, plasma	intravenous infusion, 30 mg/m^2, 8 h infusion		Cmax	160 ± 90 nM
C=CC(=O)N1CCC([C@@H]2CCNc3c(C(N)=O)c(-c4ccc(Oc5ccccc5)cc4)nn32)CC1			human patients	oral, 160 mg once daily, day 8		Cmax	390 ± 231 ng/mL
COc1ccc2nc([S@+]([O-])Cc3ncc(C)c(OC)c3C)[nH]c2c1			Japanese non-obese humans	intravenous bolus, 20 mg racemic omeprazole		Cmax	947 ng/mL
COc1cc2c(Oc3ccc4[nH]c(C)cc4c3F)ccnc2cc1OCC1(N)CC1			human	10 mg single dose		Cmax	5.78 ± 2.76 ng/mL
Cc1nsc(-c2nnc3n2CCN(C(=O)c2ccc(F)cc2)[C@@H]3C)n1			human	oral, 45 mg single dose, fed		Cmax	343 ng/mL
O=C(c1cccnc1-c1ccncc1)N1CCC(O)(Cc2ccccc2)CC1			human adults, moderate hepatic impairment, plasma	300 mg single dose		Cmax	3670 ng/mL

A few entries again:
SMILES	target or system	test	test system	conditions	how to read	endpoint	result
O=C(c1cccnc1-c1ccncc1)N1CCC(O)(Cc2ccccc2)CC1			human adults, moderate hepatic impairment, plasma	300 mg single dose		Cmax	3670 ng/mL
